# Measured values collected from several papers.
# Parts stem from different laboratories: compare values within a part only. Changes are numbered by the printed parent chain.

# Sample 1
# Target: Ras GTPase-activating protein-binding protein 1, full length (G3BP1, Homo sapiens, UniProt Q13283)
# Sequence of UniProt Q13283 (whole entry, looked up): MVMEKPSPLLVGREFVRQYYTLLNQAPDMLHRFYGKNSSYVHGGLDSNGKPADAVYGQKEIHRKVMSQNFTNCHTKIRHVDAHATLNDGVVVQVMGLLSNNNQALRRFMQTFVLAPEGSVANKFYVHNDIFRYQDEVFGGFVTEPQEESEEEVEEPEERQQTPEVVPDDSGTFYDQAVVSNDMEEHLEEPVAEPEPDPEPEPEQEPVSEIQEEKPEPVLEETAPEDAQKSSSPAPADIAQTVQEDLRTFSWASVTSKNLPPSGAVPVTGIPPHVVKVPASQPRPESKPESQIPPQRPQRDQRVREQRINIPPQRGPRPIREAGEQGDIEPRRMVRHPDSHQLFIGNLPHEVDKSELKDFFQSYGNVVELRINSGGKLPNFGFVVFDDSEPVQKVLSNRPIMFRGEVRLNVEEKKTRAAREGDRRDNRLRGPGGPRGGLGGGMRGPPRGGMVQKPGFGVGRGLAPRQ
# Technique: RNA Bind-n-Seq
# Molecule type: RNA
# Medium: in vitro
# Concentration: 200 nM
# Notes: whole 134-nt RNA, ends assumed
# Together with: 150 mM LiCl
# Reference: input library
# Reading: higher = stronger binding
# All molecules: 7-deaza-guanosine replaces G
Sequence,log2 enrichment
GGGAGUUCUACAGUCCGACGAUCUCCCCAGGGCCUGGCCUACUCAAUCUCUCCCACCUCAUCCUCUGGCAUGGACGCAGUCAGGGAGUCUGCUCCAAGCAGACACUGGUGGUCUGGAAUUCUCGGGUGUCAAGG,-0.0614
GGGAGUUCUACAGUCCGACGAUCUUUGACGCGGUGUGUUACGUGGGGGAGAGAAUAAAACUCCAGCGAGAUCCGGGCCGUGAACGAAAGCAGUGACGGAGGAGCUUGUACCACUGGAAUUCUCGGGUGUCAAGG,0.566
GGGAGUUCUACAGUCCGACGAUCUAACUUUAGAGGAGGAUCUGAUGGAUAUGGCAGUGGACGUGGAUUUGGGGAUGGCUAUAAUGGGUAUGGAGGAGGACAUGGAGGUGGCAAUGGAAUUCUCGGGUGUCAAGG,0.0845
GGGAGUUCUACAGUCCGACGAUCAAGUCCUGUGCUACACAUCGUAUGUACCGAAUCGGUUUUGGUUUUGGGUUUUGGGGAAAGUAUUAUGUUACGCCGUUCGGAUCUGCACUUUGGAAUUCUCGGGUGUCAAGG,-0.383
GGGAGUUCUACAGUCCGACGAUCCUGUGCUACACAUCGUAUGUACCGAAUCGGCCCCCCCGGGGCCCCCCCGGGGCCCCCCCGGGAAAGUAUUAUGUUACGCCGUUCGGAUCUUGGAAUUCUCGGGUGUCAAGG,-0.919
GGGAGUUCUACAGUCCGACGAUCGUCCUGUGCUACACAUCGUAUGUACCGAAUCAAAUUUUUAAAUUUUUUUAAAUUUAAAAAAGUAUUAUGUUACGCCGUUCGGAUCUGCACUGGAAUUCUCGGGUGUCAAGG,-2.93
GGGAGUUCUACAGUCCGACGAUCUCUCCCCAGGAGCACAGAAAAUGGUUCUGCCCCCUCCACAGCUCCCACAGACCAGAGCCGGCCACCGUUGGAGGUGAGUCGCCCGCCCCUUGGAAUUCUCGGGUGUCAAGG,0.866
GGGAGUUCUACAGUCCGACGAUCCAAGUCCUGUGCUACACAUCGUAUGUACCGAAUCGGGUGGGAGGGAAAAAAAGGGAAAGUAUUAUGUUACGCCGUUCGGAUCUGCACUUCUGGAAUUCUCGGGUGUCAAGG,-0.0193
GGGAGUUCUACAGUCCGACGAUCUCAAGUCCUGUGCUACACAUCGUAUGUACCGAAUCGGUUGGGGUUGGGGUUGGGGAAAGUAUUAUGUUACGCCGUUCGGAUCUGCACUUCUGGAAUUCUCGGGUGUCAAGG,-0.708
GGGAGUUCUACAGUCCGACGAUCACCAUGCAGGUGGGCAUCUUUGGGAAGUGGGGCAAGGGGGGGAUAGGGAGGGGGGUAACACUUUGGGAACAGGUGGUCCCAUGUCGUUUCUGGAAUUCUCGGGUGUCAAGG,0.539
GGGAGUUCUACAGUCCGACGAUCGUCCUGUGCUACACAUCGUAUGUACCGAAUCGGUUUUUGGGGUUUUUGGGUUUUUGGGGAAAGUAUUAUGUUACGCCGUUCGGAUCUGCAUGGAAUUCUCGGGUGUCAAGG,-0.529

# Sample 2
# Target: RNA binding protein fox-1 homolog 2, RRM domain, GST-SBP tag (RBFOX2, Homo sapiens, UniProt O43251-10, residues 100-194)
# Technique: RNA Bind-n-Seq
# Molecule type: RNA
# Medium: in vitro
# Concentration: 365 nM
# Notes: natural RNA segment, single round, ends assumed
# Reference: no-protein control
# Reading: higher = stronger binding
# Target sequence (chain): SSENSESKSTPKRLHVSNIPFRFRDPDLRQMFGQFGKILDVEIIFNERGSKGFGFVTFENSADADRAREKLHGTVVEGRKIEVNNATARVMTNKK
Sequence,RBNS enrichment (R)
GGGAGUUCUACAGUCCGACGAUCAAAGGAAAGCACAGGCUAAGCAGUUGAAGGUUCCCCACCAUUCAGUGAGAGCAGAACCCCCAUUCCCCAGCCUCUGCUGGUAGCAUGUCGCAGUUUCCAUGUGUUUCAGGUGGAAUUCUCGGGUGCCAA,1.63
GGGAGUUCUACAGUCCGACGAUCACUCCAGGGAAACCUGAAAGCAAGAAGUUAAUGGACUGUUUAUUGUAACUUGAUCCUCCCGAGCUGUGAGCGCAGUCUGAGGUGUGAGGACACGGCCUCCUGUUGGAGUCUGGAAUUCUCGGGUGCCAA,0.251
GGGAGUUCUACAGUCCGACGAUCUUCUGAUCAGAUGAACAUCUGUCCAAGCCAAAAUUCUGCAGAGGGCAGGUGAGCUUUGCUUAUGUAGUUUGCUUUCACCAUAUAGACUGAGAGAAGAUUUCAGACUUCUUUGGAAUUCUCGGGUGCCAA,0.337
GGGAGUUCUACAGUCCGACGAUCCUUCAUCCAGGGGCUGGGCUUCGGGUCUUCAGGAGUGGGCCUUGGCUGGUGCUGGUGCCAUGGACUCUGCCCAGAGCCUUCUUGUUUAUGAUCAGCUCCAGCUACCUGGGUGGAAUUCUCGGGUGCCAA,0.447
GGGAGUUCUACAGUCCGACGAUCGUCUGCGGUCACAGUGGCCCCUGGGCAGGGGCACCCAGGCUGACCCUGAGGUGCUGCUGCUGGGUCUGUCUUGGCUCUGGGGUGUGCUGGGAGGGUCACCAGGUCCCUUUUGGAAUUCUCGGGUGCCAA,0.246
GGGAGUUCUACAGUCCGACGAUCGCCGGGACGGGCCGGCGGGCACCAGGCUGGGGUCUCCUUGUCUGUGCUCUGAUAUGCUCCUUGACUGAAACUUUAAGGGGAUCUCUCCCAGAGACUUGACAUUUUAGCUUUGGAAUUCUCGGGUGCCAA,0.519
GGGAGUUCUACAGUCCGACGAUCCAAGAGGAUUUCAAAUGCUAACUUUUAGUUUCUUGGGAUUGAUCAAGGCAAGAGAAGUGGCUUUAACCAUGCCAGCCAGAAUGAAGCAUCAUGGGUCCUGAUGGUUUCCCUGGAAUUCUCGGGUGCCAA,0.588
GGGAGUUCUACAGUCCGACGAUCUCUAUUGUCAGCAUCAUUUUCAUCUGUAAGUCACUACUGGAAUAUAUUUUUCUUUUAAUUUCCAGUGACUUUAGAAUACACACAGUUUUUCCGACUUUUCAAAAAUUUGAUGGAAUUCUCGGGUGCCAA,0.892
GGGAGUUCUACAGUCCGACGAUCACCACUGUCAUUUCUUCAGCUAUGGAUAUGUGGCUGAUGUUGGGGAGACGGACCUCAGUGUGUUUUAUAUUGUCUGGUGUUAAGAUGAUAAAUUACUUUGUGAUUACAAGUGGAAUUCUCGGGUGCCAA,0.439
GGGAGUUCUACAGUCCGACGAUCCAGAAAUAUAAUGUCUGGAUCUACUUCAUUCUUACAUCAACAUUCACUUUAAAAUCUAUCGAAGCUCUUUUAACGUAAUGGGUGACAAUGUCACAUGACAGAUGCCAUGAUGGAAUUCUCGGGUGCCAA,0.344
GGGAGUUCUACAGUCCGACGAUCGAGCAUCUGUGCACCCACUCUUCAGCCCCUACCCAUCUGCCACCUUGGUCUGACUUGGCCAUGGGAGCCUUUCCCAACCCAGUGUGGAAGGGAGUCGGGAGGGAAGGAAGUGGAAUUCUCGGGUGCCAA,0.448
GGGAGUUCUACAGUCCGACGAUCAGGCAAGCUCAAAUUAACCUUUUGCCAUCAAACCUUGUAGCCGUCUUGGCAUGAAGGCAUGUUUUCCUUCUGGGGGUGGUGACAUGCCCUCCAGACGGCCUGCCAUCCAGUGGAAUUCUCGGGUGCCAA,1.78

# Sample 3
# Target: ABI1, truncated, D143A, DHFR fusion (Arabidopsis thaliana, UniProt P49597)
# Technique: DHFR PCA, dose-response
# Medium: yeast
# Notes: Hill fit, not affinity
# Together with: (+)-ABA, dose series
# Reading: lower = more sensitive
# Starting sequence: PYL1, truncated, DHFR fusion (Arabidopsis thaliana, UniProt Q8VZS8); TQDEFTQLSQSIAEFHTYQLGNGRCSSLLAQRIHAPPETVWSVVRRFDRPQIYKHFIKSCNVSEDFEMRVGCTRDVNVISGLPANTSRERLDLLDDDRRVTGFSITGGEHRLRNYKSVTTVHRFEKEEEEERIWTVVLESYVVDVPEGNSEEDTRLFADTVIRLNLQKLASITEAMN
Variant,ABA EC50
T120C,2220 µM
D92A,109 µM
C25V,7.85 µM
N85C,11.7 µM
S9K,29.8 µM
W134Y,2.98 µM

# Sample 4
# Target: CCNF, cyclin fold, Cln2 fusion (human)
# Technique: yeast growth competition, sequencing
# Medium: yeast
# Notes: strong parent motif
# Reference: not given
# Reading: higher = stronger binding
# Starting sequence: E2F1 docking peptide (human); PPVKRRLDLETDH; partner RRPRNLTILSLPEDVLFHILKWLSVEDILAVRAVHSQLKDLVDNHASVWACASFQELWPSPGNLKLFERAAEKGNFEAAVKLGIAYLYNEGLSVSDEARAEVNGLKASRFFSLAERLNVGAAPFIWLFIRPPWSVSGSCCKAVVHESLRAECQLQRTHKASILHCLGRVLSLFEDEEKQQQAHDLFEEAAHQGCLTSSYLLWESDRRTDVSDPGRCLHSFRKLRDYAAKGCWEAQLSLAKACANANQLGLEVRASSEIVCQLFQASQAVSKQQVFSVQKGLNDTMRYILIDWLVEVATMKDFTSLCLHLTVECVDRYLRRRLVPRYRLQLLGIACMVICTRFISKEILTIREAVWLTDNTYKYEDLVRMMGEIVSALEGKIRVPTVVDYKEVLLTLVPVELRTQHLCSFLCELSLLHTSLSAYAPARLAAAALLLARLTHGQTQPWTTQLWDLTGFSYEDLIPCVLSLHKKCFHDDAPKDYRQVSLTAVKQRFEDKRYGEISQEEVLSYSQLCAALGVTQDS
Variant,normalised enrichment score
PPVERRLDLETDH [K4E],1.61
WPVKRRLDLETDH [P1W],7.5
PPVKRKLDLETDH [R6K],5.29
PPVKRRLDLITDH [E10I],6.24
PPVKRRLALETDH [D8A],5.79
PPWKRRLDLETDH [V3W],2.87
PPVKRRLDLETDI [H13I],7.34
PPVNRRLDLETDH [K4N],6.43
MPVKRRLDLETDH [P1M],7.68
PWVKRRLDLETDH [P2W],5.68
PPVKRYLDLETDH [R6Y],3.71
PPVKRDLDLETDH [R6D],-0.954
FPVKRRLDLETDH [P1F],7.89
APVKRRLDLETDH [P1A],6.23
PPVKSRLDLETDH [R5S],0.213
PPVKRRPDLETDH [L7P],0.0223
PPVKRRLDLETKH [D12K],6.52
PPVKRRQDLETDH [L7Q],1.04
TPVKRRLDLETDH [P1T],4.05
PPVKRRLNLETDH [D8N],8.62
PPVKRRLDLETDG [H13G],6.85
PPVKRRLFLETDH [D8F],9
PPVKRRLDLETDF [H13F],8.25
PRVKRRLDLETDH [P2R],5.29
PPDKRRLDLETDH [V3D],0.607

# Single results of other studies
Substance,target,test,system,setting,how to read,measurement,value
"PhoQ, residues 284 288 289 292 302 303 TNASYF","PhoP, residues 12 14 15 18 19 AQALL (Escherichia coli, UniProt P23836)","Sort-seq, refers to: YFP reporter",E. coli,"PhoQ-PhoP variant library, together with: 10 µM Mg2+","reference: high Mg2+ state, higher = stronger signaling",fold induction,12.2
